Measurements gathered from unrelated publications.
Each numbered part is a random draw from the data of one study; scales do not carry over between parts. Changes are numbered by the printed parent chain.
Sequence of UniProt P48736 (whole entry, looked up): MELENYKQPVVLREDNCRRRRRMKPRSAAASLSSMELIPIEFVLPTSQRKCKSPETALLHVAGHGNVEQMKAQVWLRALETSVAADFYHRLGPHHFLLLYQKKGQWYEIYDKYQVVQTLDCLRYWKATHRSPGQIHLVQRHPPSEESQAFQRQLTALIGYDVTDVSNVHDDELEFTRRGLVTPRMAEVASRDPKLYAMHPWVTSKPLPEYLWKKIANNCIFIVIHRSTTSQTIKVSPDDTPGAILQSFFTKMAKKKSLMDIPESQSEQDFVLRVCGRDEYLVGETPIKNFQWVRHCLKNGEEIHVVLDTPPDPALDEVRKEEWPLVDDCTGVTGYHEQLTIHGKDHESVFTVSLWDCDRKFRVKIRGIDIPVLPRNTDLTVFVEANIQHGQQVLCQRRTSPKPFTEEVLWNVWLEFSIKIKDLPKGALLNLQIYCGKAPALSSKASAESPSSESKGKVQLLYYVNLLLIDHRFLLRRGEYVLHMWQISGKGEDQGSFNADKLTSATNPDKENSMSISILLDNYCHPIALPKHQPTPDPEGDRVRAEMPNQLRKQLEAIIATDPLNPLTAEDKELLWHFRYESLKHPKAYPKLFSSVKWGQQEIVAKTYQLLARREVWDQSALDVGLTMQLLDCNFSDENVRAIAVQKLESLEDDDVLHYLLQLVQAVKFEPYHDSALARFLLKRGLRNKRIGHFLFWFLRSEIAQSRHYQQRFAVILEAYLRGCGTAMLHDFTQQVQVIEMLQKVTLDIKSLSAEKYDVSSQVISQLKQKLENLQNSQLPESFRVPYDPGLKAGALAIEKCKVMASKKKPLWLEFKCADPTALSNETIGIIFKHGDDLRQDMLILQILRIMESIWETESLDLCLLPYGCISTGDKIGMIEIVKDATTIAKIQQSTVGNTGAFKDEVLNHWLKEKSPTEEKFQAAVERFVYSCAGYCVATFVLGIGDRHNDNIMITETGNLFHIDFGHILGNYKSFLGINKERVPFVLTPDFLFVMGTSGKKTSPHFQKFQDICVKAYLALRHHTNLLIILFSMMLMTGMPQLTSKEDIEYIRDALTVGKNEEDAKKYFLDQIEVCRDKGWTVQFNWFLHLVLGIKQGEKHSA

Study 1 — technique: protein binding microarray; molecule type: double-stranded DNA, one strand shown; sample: in vitro; concentration: not given; reference: not given; reading: higher = stronger binding
Target: Histone acetyltransferase KAT6A, winged helix 1, GST fusion (KAT6A, Homo sapiens, UniProt Q92794, residues 1-85)
Setting: 8-mer, flanks averaged, mean of 2 arrays, mostly near background
Residues (chain): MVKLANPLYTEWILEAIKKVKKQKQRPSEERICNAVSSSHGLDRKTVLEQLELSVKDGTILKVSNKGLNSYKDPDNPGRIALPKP
| Sequence | E-score |
| --- | --- |
| GCACTAGC | 0.19 |
| GTGAGCTA | -0.219 |
| ACAATCCC | 0.0452 |
| CAGCAGCG | 0.15 |
| ACCGAATA | -0.202 |
| CTCGACCA | -0.144 |
| ATGCTACA | -0.157 |
| CAATGGTA | -0.023 |

Study 2 — target: CCNA2, cyclin fold, Cln2 fusion (human); technique: yeast growth competition, sequencing; sample: yeast; setting: strong parent motif; reference: not given; reading: higher = stronger binding
Starting sequence: PLK5 docking peptide (human); IFRKVGQRLLTQC
| Change | normalised enrichment score |
| --- | --- |
| T11A | 1.63 |
| I1A | 1.16 |
| Q7A | 1.73 |
| L10A | 0.979 |
| V5A | 1.07 |
| Q12A | 2.31 |
| R3A | 1.51 |

Study 3 — technique: RNAcompete; molecule type: RNA; sample: in vitro; concentration: 20 nM; setting: 7-mer, probes averaged, single round; reference: mean of 7-mers; reading: higher = stronger binding
Target: PABPC1L2, full length, GST fusion (mouse, UniProt A0ABA7IW68)
Construct (chain): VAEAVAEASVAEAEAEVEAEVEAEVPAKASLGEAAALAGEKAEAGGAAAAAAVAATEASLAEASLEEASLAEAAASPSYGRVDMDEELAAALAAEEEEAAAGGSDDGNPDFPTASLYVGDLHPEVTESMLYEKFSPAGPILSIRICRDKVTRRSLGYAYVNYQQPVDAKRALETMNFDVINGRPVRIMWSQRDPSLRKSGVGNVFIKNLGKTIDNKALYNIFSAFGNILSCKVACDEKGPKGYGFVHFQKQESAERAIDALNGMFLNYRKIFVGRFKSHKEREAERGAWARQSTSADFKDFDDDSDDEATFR
| Sequence | 7-mer Z-score |
| --- | --- |
| UUACCUA | -0.164 |
| CCUCUUU | -0.251 |
| GGCGACG | 0.242 |
| UACCGUA | -0.267 |
| AGGAGGU | 0.0968 |
| GUUAUGC | -0.206 |
| GUUAAGU | -0.231 |
| GAAACUG | 0.345 |

Mixed results
| SMILES | target | assay | conditions | measurement | value |
| --- | --- | --- | --- | --- | --- |
| Cc1noc([C@H]2C[C@@H](c3ccc(C(F)(F)F)cc3)CN(C(=O)N3CCS(=O)(=O)C3)C2)n1 | Phosphatidylinositol 4,5-bisphosphate 3-kinase catalytic subunit gamma isoform (PIK3CG, Homo sapiens, UniProt P48736) | cell-free assay, competition with immobilised ligand | 1 µM | remaining binding | 85% |
